Measured values pooled from the literature.
Every numbered part comes from another study and shows a few of its results, in no order.

Study 1 — method: protein binding microarray; form: double-stranded DNA, one strand shown; medium: in vitro; concentration: not given; baseline: not given; reading: higher = stronger binding
Target: Histone acetyltransferase KAT6A, both winged helices, GST fusion (KAT6A, Homo sapiens, UniProt Q92794, residues 1-181)
Notes: 8-mer, flanks averaged, mean of 2 arrays, mostly near background
Construct (chain): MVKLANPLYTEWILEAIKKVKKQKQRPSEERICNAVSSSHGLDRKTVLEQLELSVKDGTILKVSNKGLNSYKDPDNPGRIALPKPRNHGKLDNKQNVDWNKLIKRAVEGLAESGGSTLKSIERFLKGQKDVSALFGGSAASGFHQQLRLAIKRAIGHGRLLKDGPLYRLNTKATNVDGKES
Strand | E-score
TATGGCCA | -0.11
AGGGCGCA | 0.202
CAAGGAGG | -0.131
GAACCCGC | 0.315
AAAATGCG | 0.258
GCCTAAAC | -0.0531
GCCGTTGA | 0.206
AAGTCGCA | 0.118
GACTATGA | -0.124
GCATGAGC | 0.0372
ATCCGATA | 0.0925
ACTAAGCA | -0.103
GAAACGGC | 0.264
GGGCATGA | -0.0698
ATGTTGAC | 0.0322
GCTTGCCA | -0.0546
GGTAAAAA | 0.000605
CACCAGGG | -0.239
ATCTCACG | 0.02
ATTGGACA | -0.0848
CGTGCACG | 0.129
CAGGAGCG | 0.207
GTCGCGCA | 0.295
AGATTCTG | -0.231

Study 2 — method: RNA Bind-n-Seq; form: RNA; medium: in vitro; concentration: 200 nM; notes: whole 134-nt RNA, ends assumed; together with: 150 mM LiCl; baseline: input library; reading: higher = stronger binding; each molecule: 7-deaza-guanosine replaces G
Target: Fragile X messenger ribonucleoprotein 1, C-terminal low-complexity region (Fmr1, Mus musculus, UniProt P35922)
Shared flanks, not repeated: GGGAGUUCUACAGUCCGACGAUC … UGGAAUUCUCGGGUGUCAAGG
Strand | log2 enrichment
GUCCUGUGCUACACAUCGUAUGUACCGAAUCGGGUUUGGGAAAAAGGGAAAAAAAGGGAAAGUAUUAUGUUACGCCGUUCGGAUCUGCAC | -0.156
CCUGUGCUACACAUCGUAUGUACCGAAUCGGUUUUUUUGGGUUUUUUUGGGUUUUUUUGGAAAGUAUUAUGUUACGCCGUUCGGAUCUGC | 0.149
CACCGACAACACGCACCCACACAGACACAGAGGGAAGGGGUUGGGAUGGGGACAGGGUGCACAGCAGGGCGGGGUAGGACCCCAGCCCCU | 0.343
UCAAGUCCUGUGCUACACAUCGUAUGUACCGAAUCGGAAAGGAAAGGGAAAGGGAAAGUAUUAUGUUACGCCGUUCGGAUCUGCACUUCC | -0.386
CAAGUCCUGUGCUACACAUCGUAUGUACCGAAUCGGGGUUUGGGUUUGGGGUUUGGAAAGUAUUAUGUUACGCCGUUCGGAUCUGCACUU | -1.72
UGGCCCUGGUGGCAUGCGGGGAGGAAGAGGUGGCCUCAUGGAUCGUGGUGGUCCCGGUGGAAUGUUCAGAGGCGGCCGUGGUGGAGACAG | -0.578
AAGUCCUGUGCUACACAUCGUAUGUACCGAAUCGGUUUUUUUGGAAAAAGGAAAGGAAAGUAUUAUGUUACGCCGUUCGGAUCUGCACUU | -2.75
UCCUGUGCUACACAUCGUAUGUACCGAAUCGGGUUUUUUGGGGUUUUUUGGUUUUUUGGAAAGUAUUAUGUUACGCCGUUCGGAUCUGCA | -0.077
UCAAGUCCUGUGCUACACAUCGUAUGUACCGAAUCGGGGCCGGGGCCGGGGCCGGAAAGUAUUAUGUUACGCCGUUCGGAUCUGCACUUC | -0.152
CCUCAAGUCCUGUGCUACACAUCGUAUGUACCGAAUCGGGGAGGAGGGGAGGGAAAGUAUUAUGUUACGCCGUUCGGAUCUGCACUUCCA | -0.548
UAACUUUAGAGGAGGAUCUGAUGGAUAUGGCAGUGGACGUGGAUUUGGGGAUUGCUAUAAUGGGUAUGGAGGAGGACCUGGAGGUGGCAA | -0.868

Study 3 — method: aptamer microarray, sandwich; form: DNA with 2'F-ANA; medium: in vitro; concentration: 200 nM; together with: Cy3 exosite-II aptamer, 400 nM; reading: higher = stronger binding; strand: GGTTGGTGTGGTTGG
Target: Prothrombin, mature alpha-thrombin (F2, Homo sapiens, UniProt P00734)
Notes: whole 15-mer aptamer, many near background
Modification | mean fluorescence intensity [a.u.]
2'F-ANA at 1 2 3 5 6 7 8 9 13 | 53.4
2'F-ANA at 1 2 6 7 8 12 13 | 317
2'F-ANA at 1 2 3 4 6 7 8 9 14 | 65.6
2'F-ANA at 1 7 11 12 13 | 284
2'F-ANA at 4 6 8 9 10 11 14 | 53.9
2'F-ANA at 3 8 10 11 12 | 625
2'F-ANA at 1 4 5 8 10 11 14 15 | 48.9
2'F-ANA at 2 3 7 13 14 15 | 456
2'F-ANA at 2 3 7 9 10 11 13 14 | 338
2'F-ANA at 1 2 3 4 8 9 11 13 | 124
2'F-ANA at 1 2 4 5 9 11 12 13 15 | 60
2'F-ANA at 2 4 6 8 11 13 14 | 123
2'F-ANA at 1 2 3 4 5 7 8 9 11 12 13 | 73.7
2'F-ANA at 1 2 4 6 7 9 10 12 14 15 | 74.5
2'F-ANA at 3 4 5 6 7 9 12 13 | 106
2'F-ANA at 1 4 5 7 8 11 14 | 47.2
2'F-ANA at 1 2 3 6 7 8 9 10 12 | 83.7
2'F-ANA at 2 9 11 13 14 | 126
2'F-ANA at 1 6 7 8 9 10 11 15 | 56.1
2'F-ANA at 1 4 5 6 9 12 13 14 15 | 68.1
2'F-ANA at 1 3 8 13 14 | 95.6
2'F-ANA at 1 3 4 6 9 11 12 14 15 | 116
2'F-ANA at 3 4 5 6 7 8 9 10 11 12 14 15 | 50.1
2'F-ANA at 1 2 3 9 10 11 12 15 | 129
2'F-ANA at 4 5 6 13 | 51

Study 4 — method: RNA Bind-n-Seq; form: RNA; medium: in vitro; concentration: not given; baseline: input RNA pool; reading: higher = stronger binding
Target: RING finger protein unkempt homolog, zinc fingers 1-6, GST-SBP tag (UNK, Homo sapiens, UniProt Q9C0B0, residues 30-357)
Notes: RNA with constant flanks, human and mouse sites, ends assumed
Shared flanks, not repeated: GGGAGUUCUACAGUCCGACGAUC … CAACAGAGGAUUGAGCAUCA
Construct (chain): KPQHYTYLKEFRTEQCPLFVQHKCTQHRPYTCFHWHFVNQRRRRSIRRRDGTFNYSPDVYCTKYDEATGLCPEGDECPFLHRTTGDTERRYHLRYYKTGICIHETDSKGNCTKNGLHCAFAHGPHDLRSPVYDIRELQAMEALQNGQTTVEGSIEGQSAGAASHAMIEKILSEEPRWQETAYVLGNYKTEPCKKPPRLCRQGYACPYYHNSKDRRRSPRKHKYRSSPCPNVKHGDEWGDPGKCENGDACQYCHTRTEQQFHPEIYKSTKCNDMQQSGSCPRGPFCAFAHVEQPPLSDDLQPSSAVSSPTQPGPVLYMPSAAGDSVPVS
Strand | bound/input enrichment
AGGAGCGCGCCAUGGCGGUGUCCGAGAGUCAGCUGAAGAAGAUGAUGUCCAAGUACAAAUAUAGAGAUCUAACCGUCCGUCAAACUGUCAAUGUCAUCGCUAUGUACAAAGAUCUCAAAC | 0.0817 ratio
CAAAAUUUGGAUGCCCUCCUGAACCAGCUGAAAAGCUUCCCUGCCCGGUUGCGACAGUAUGCGUCCUAUGAGUUUGUUCAGAGGCUUCUGAAAGGUUACAUGAAGAUAAAUAUGCUGGUG | 0.191 ratio
AAGCGGGUAGAUUCGGAGUCAGACUCAGACUCUGAAGAUGAUAUAAAUUCAGUGAUGAAGUGUUUGCCGGAAAAUUCAGCCCCUUUGAUUGAAUUCGCAAAUGUUUCCCAGGGUAUUUUA | 0.206 ratio
CCUAGCGGUGGGGACAUUCGAAUGAAUCAGGGGCCUGAGGAAUCAGAGAGCCACCUCUGCUCUGACAGCACUCCUAAGAUGGAAGGCCCCCAGGGGGCUUGUGGCCUGAAGCUGGCAGGA | 0.22 ratio
GGAGGGUAUGGAGGCUAUGAUGACUAUGGAGGUUAUAAUGACGGGUAUGGUUUUGGGUCUGAUAGAUUUGGAAGAGACCUAAACUACUGUUUCUCAGGAAUGUCUGAUCAUAGAUAUGGA | 2.1 ratio
UGGUGCUUUUUCCACCUUGUAUUGUUGUAACUGUAAGCUCCUAGGGGGCAGCAAUUUGGUCUUAGGCGUGUACCCUGUUUAGUGCCUGGCAAUGCCAUGUUUAUAUCAAGGUCUUAAUAU | 2 ratio
AGAGCCAACGAUUGACUGCACGGCAGAGGCGCAGCUGGCCUGAGCUGGGGAGAGGUGGCAGAGGGCAGUAUGGCUUUGCUGCCAAUAGUUUCUUCUCACAGGGGCAGAAUAACCCAAAGU | 0.106 ratio
UAUUUUCUACUCUGCAGAAAAGGAAGAUGUUGCUGGGCACCCAGGAGCUGAAGUUGCUUUGGUUGGUGGCUUGAAACUUCUAGCUAGACUGUCACUUCUUACAGAACAAGACUUAUGGAC | 0.306 ratio
CAGCAGAGGUUGAUCUUUGCUGGGAAACAGCUGGAAGAUGGACGCACCCUGUCUGACUACAACAUCCAGAAAGAGUCCACUCUGCACUUGGUCCUGCGCUUGAGGGGGGGUGUCUAAGUU | 0.108 ratio
AGAAAAAUCAAACACUCCUUUAUAAUCUUUUUGACAUUUCUCAAUCUGCACAGACACCAGUAGCAGUUAUUGGACUUACAUGUAGAUUGGAUAUUUUGGAACUCUUAGAAAAGAGAGUGA | 0.384 ratio
GCGACGCCCGGCCCGCAGGGCAGGUAAAGAGAUUAUAAAUCUUCCACUGAAUGAAAAAAAUUUUCUUAAAGCUGCAUAUACUCCAAGAAAAAAACCACAAAUGUUUUUCUGUUUUGCCUG | 0.247 ratio
